Assay results from different studies.
Numbered parts are unrelated; each lists some results of a single study.

Series 1
Target: PABPC1L2, full length, GST fusion (mouse, UniProt A0ABA7IW68)
Method: RNAcompete
Form: RNA
Medium: in vitro
Tested at: 20 nM
Notes: 7-mer, probes averaged, single round
Reference: mean of 7-mers
Direction: higher = stronger binding
Target sequence (chain): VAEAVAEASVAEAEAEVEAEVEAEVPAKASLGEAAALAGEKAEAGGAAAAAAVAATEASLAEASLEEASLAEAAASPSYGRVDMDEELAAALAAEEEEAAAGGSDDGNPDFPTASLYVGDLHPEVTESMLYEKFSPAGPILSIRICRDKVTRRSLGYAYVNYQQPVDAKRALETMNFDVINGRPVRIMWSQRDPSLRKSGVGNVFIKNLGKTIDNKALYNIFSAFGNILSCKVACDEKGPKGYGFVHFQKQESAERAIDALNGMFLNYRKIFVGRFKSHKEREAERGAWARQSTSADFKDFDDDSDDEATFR
The 7-mer Z-score of `UCCCGCA` is reported as -0.302.
For `UGCUGCU`, the 7-mer Z-score was -0.266.
For `UCGUCCC`, the 7-mer Z-score was -0.498.
`UGUGCGU` has a 7-mer Z-score of -0.242.
With `GCCUAGA` the 7-mer Z-score was -0.0264.
For `GUGCAAU`, the 7-mer Z-score was 0.037.
`GAGCAGG` gave a 7-mer Z-score of 0.0623.
With `GUUCCCC` the 7-mer Z-score was -0.474.

Series 2
Target: Replicase polyprotein 1ab, main protease (rep, Severe acute respiratory syndrome coronavirus 2, UniProt P0DTD1)
Effect on: enzyme activity
Action: inhibitor
`COc1ccc(OC)c2c(=S)c3ccccc3[nH]c12` has an IC50 of > 20 µM.
`CNC[C@H](O)c1ccc(O)c(O)c1` gave an IC50 of > 20 µM.
`COC(=O)/C=C/c1cc(O)ccc1O` has an IC50 of 13 µM.
The IC50 of `Cc1cc(-c2ccc(/C=C3/SC(Nc4ccc(Cl)c(C(=O)O)c4)=NC3=O)o2)c([N+](=O)[O-])cc1C` is reported as > 20 µM.

Series 3
Target: RING finger protein unkempt homolog, zinc fingers 1-6, GST-SBP tag (UNK, Homo sapiens, UniProt Q9C0B0, residues 30-357)
Sequence of UniProt Q9C0B0 (30-357, looked up): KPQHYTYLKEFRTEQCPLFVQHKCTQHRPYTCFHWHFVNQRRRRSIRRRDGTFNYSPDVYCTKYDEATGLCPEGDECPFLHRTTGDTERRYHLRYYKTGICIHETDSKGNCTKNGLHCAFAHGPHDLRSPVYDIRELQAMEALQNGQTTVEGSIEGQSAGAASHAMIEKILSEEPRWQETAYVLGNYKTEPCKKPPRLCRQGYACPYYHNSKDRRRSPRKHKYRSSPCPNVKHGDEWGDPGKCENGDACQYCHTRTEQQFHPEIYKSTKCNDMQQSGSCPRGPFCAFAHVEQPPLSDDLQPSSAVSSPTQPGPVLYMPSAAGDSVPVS
Method: RNA Bind-n-Seq
Form: RNA
Medium: in vitro
Tested at: not given
Notes: RNA with constant flanks, ends assumed
Reference: input RNA pool
Direction: higher = stronger binding
With `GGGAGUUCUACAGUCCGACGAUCCUUUUUAAGAAGAUAUGUGAUGGGAUCUUCUAUACCCCUCAAUAUUUAAAUCCUUCUGUGAUCCGCCUUUUGAAACAUAUGCUGCAGGUGGAUCCCAUGAAGAGGGCCACAAUCAAAGAUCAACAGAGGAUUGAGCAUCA` the bound/input enrichment was 0.229 ratio.
`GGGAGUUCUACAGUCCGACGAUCCUUCUGUUUGUAAGGAUGAUUUUAAUAUUAAUUCCAGGAACACAUGUUUUUAUUUCCUCUGCUGGAACCGGAGAAAGCUUAAUAUAUUCCCAAGCUGAAUGUUCUUGAAUUAUAUCUGCACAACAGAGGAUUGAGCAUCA` has a bound/input enrichment of 0.228 ratio.
With `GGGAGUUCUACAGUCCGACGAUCGAAAUUUUGAAAUGGUAUCUCAACAAGAUAAAGUUUGAUAAAUCUGUUGAUCCAGAAAUCACCGCUCGAGGGACUGUUGGGUUCUCUGGAGCAGAGUUGGAGAAUCUUGUGAACCAAGCUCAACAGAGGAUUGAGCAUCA` the bound/input enrichment was 0.183 ratio.
With `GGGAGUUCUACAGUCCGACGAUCCGCGCCAUUCAGGGAGCAACAUCACACCAUUUAGGCCAGAAUUUCUCCAAAAUGUGUGAAACCGUUUUUGAAGAUCCCAAGACACCAGGAGAAAAGCAGUUUGCAUACCAGUGCUCCUGGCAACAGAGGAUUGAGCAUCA` the bound/input enrichment was 0.114 ratio.
`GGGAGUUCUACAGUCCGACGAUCAUGACCCUUGGACAGCAGGAUGUUUCCAAAGUCCUGCUAGGCCCUCUCUCUCCCUACACGACCGAAUUUUUGCGGCAUUUGAAGAGCUUUUUCCAGAUUAUGUUUAAAAUUGAAACCAAGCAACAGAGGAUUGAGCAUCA` has a bound/input enrichment of 0.405 ratio.
`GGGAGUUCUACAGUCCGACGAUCCGCGGAGGCCGGCCGGGGGACGGCGUCCUGCCCCGGGAGCAGCUGAUACUUUUAGGGACACCCGCCGACCUAUUGGGAGAUUCGGAACAAGAAUGUAGGAGUGGAAGCCUGUAUGUGAGGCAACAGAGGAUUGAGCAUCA` has a bound/input enrichment of 0.426 ratio.
With `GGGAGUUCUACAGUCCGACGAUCAAAGAAAAAGAUGAAAUGGUAGAACAAGAAUUUAACCGGUUGCUAGAAGCCACUUCUUACCUCCGUCACCAGUUAGACUUCAACGUCCUCAAUAAUAAACCUGUAUCCCUUGGCCAGGCACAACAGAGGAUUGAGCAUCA` the bound/input enrichment was 0.277 ratio.
The bound/input enrichment of `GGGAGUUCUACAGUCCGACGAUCGCCAACAUCAAACGGGAACAGGGCAACAUUGAAGAGGCAGUUCGCCUGUAUCGCAAAGCAUCCGAAGUCUUCCCAGAGUUUGCUGCUGCACAUUCCAAUUUAGCAAGUGUACUGCAACAGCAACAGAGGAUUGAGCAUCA` is reported as 0.243 ratio.

Series 4
Target: Replicase polyprotein 1ab, nsp13 helicase (rep, Severe acute respiratory syndrome coronavirus 2, UniProt P0DTD1)
Action: inhibitor
Tested at: 20 µM
For `CNC(=O)c1ccc(Nc2ncc(C(F)(F)F)c(NCc3nccnc3N(C)S(C)(=O)=O)n2)cc1`, the inhibition was 5.5%.
`N=C(N)c1ccc(-c2ccc(-c3ccc(C(=N)N)cc3)o2)cc1` has an inhibition of 57.6%.
`N=C(N)NCc1cccc(I)c1` has an inhibition of 5.05%.
For `Cc1cc(Nc2cc(CN3CCOCC3)c3nc(C)c(Cc4ccc(Cl)cc4F)n3n2)n[nH]1`, the inhibition was 8.54%.
`CCC(C)n1ncn(-c2ccc(N3CCN(c4ccc(OC[C@H]5CO[C@](Cn6cncn6)(c6ccc(Cl)cc6Cl)O5)cc4)CC3)cc2)c1=O` (stereo partly drawn) gave an inhibition of 0.56%.
`COc1cc2c(cc1OC)CN(C(=O)/C=C/c1c(-c3ccccc3)n(C)c3ncccc13)CC2` gave an inhibition of 6.45%.
`COc1cc(C[C@@H]2NCCc3cc(O)c(O)cc32)cc(OC)c1OC` has an inhibition of 3.37%.
`C[C@@H]1O[C@@H](OC[C@H]2O[C@@H](Oc3c(-c4ccc(O)c(O)c4)oc4cc(O)cc(O)c4c3=O)[C@H](O)[C@@H](O)[C@@H]2O)[C@H](O)[C@H](O)[C@H]1O` has an inhibition of 4.98%.
`C1=Cc2cccc(OCC3CNCCO3)c2C1` (stereo not drawn) gave an inhibition of 1.25%.
With `O=C(CCCCCN1C(=O)c2cccc3cccc(c23)C1=O)NO` the inhibition was 5.87%.
For `COc1ccc(C2CC(c3ccccc3)=NN2c2ccc(S(N)(=O)=O)cc2)cc1` (stereo not drawn), the inhibition was 4.06%.
For `O=C1NC(=O)c2cc(Nc3ccccc3)c(Nc3ccccc3)cc21`, the inhibition was 1.73%.
The inhibition of `O=C1Nc2ccccc2C2(CCN(CCc3ccc(C(F)(F)F)cc3)CC2)O1` is reported as 8.2%.
`OC(c1ccccc1)(c1ccccc1)C1CCNCC1` gave an inhibition of 0.89%.
For `c1ccc2sc(SN3CCOCC3)nc2c1`, the inhibition was 4.3%.
With `Fc1ccc(-n2cc(CCCCN3CCC4(CC3)OCc3ccccc34)c3ccccc32)cc1` the inhibition was -1.46%.
`O=C(NCCNCC(O)COc1ccc(O)cc1)N1CCOCC1` (stereo not drawn) has an inhibition of 0.22%.
For `CCOC(=O)c1ccc(N2NC(=O)/C(=C/c3ccc([N+](=O)[O-])o3)C2=O)cc1`, the inhibition was 92.8%.
For `CSCC1CN(/N=C/c2ccc([N+](=O)[O-])o2)C(=O)O1` (stereo not drawn), the inhibition was 4.05%.
With `COc1ccc(C(=O)c2ccccc2)c(O)c1` the inhibition was 4.15%.
`CC(C)(C)c1ccc(-c2nc3c(N4CCN(Cc5ccc6nccnc6c5)CC4)cccc3[nH]2)cc1` gave an inhibition of 11.9%.

Series 5
Cell line: HEK-293T/ACE2
Tested at: concentration not given
Time: 16 (unit not given)
Reference: vehicle
The viability of `COCC(=O)Nc1c(I)c(C(=O)NCC(O)CO)c(I)c(C(=O)N(C)CC(O)CO)c1I` (stereo not drawn) is reported as 100%.
`Cc1cc(C)cc(OCC2CNC(=O)O2)c1` (stereo not drawn) gave a viability of 103%.
The viability of `O=C(c1ccc(F)c(F)c1Nc1ccc(I)cc1F)N1CC(O)([C@@H]2CCCCN2)C1` is reported as 94.1%.
With `Nc1ccn([C@@H]2O[C@H](CO)[C@@H](O)C2(F)F)c(=O)n1` the viability was 76.8%.

A few entries again (series 3):
`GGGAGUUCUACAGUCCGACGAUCCUUCUGUUUGUAAGGAUGAUUUUAAUAUUAAUUCCAGGAACACAUGUUUUUAUUUCCUCUGCUGGAACCGGAGAAAGCUUAAUAUAUUCCCAAGCUGAAUGUUCUUGAAUUAUAUCUGCACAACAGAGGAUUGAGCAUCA` has a bound/input enrichment of 0.228 ratio.
With `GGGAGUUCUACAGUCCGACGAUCCUUUUUAAGAAGAUAUGUGAUGGGAUCUUCUAUACCCCUCAAUAUUUAAAUCCUUCUGUGAUCCGCCUUUUGAAACAUAUGCUGCAGGUGGAUCCCAUGAAGAGGGCCACAAUCAAAGAUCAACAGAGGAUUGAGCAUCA` the bound/input enrichment was 0.229 ratio.
The bound/input enrichment of `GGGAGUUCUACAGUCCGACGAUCGCCAACAUCAAACGGGAACAGGGCAACAUUGAAGAGGCAGUUCGCCUGUAUCGCAAAGCAUCCGAAGUCUUCCCAGAGUUUGCUGCUGCACAUUCCAAUUUAGCAAGUGUACUGCAACAGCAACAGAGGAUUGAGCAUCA` is reported as 0.243 ratio.
`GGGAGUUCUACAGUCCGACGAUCCGCGGAGGCCGGCCGGGGGACGGCGUCCUGCCCCGGGAGCAGCUGAUACUUUUAGGGACACCCGCCGACCUAUUGGGAGAUUCGGAACAAGAAUGUAGGAGUGGAAGCCUGUAUGUGAGGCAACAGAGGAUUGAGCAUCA` has a bound/input enrichment of 0.426 ratio.
With `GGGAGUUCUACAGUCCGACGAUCAAAGAAAAAGAUGAAAUGGUAGAACAAGAAUUUAACCGGUUGCUAGAAGCCACUUCUUACCUCCGUCACCAGUUAGACUUCAACGUCCUCAAUAAUAAACCUGUAUCCCUUGGCCAGGCACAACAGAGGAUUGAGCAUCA` the bound/input enrichment was 0.277 ratio.
With `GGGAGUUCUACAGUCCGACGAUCCGCGCCAUUCAGGGAGCAACAUCACACCAUUUAGGCCAGAAUUUCUCCAAAAUGUGUGAAACCGUUUUUGAAGAUCCCAAGACACCAGGAGAAAAGCAGUUUGCAUACCAGUGCUCCUGGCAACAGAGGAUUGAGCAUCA` the bound/input enrichment was 0.114 ratio.
With `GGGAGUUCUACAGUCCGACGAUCGAAAUUUUGAAAUGGUAUCUCAACAAGAUAAAGUUUGAUAAAUCUGUUGAUCCAGAAAUCACCGCUCGAGGGACUGUUGGGUUCUCUGGAGCAGAGUUGGAGAAUCUUGUGAACCAAGCUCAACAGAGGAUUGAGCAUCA` the bound/input enrichment was 0.183 ratio.
